Published values collected from several papers.
Compare with care: the assays were run in different laboratories. ± marks the error that the study gave.
Organism: Plasmodium falciparum

Compound | observed | method | strain | time | notes | IC50 [nM]
CCC1=C(C)C(c2ccc[nH]2)=NC1=CNC1CCCCCC1 | parasite growth | – | 7G8, chloroquine-resistant | – | – | 117
c1cncc(CCCOCCCCCCCCCCCCOC2CCCCO2)c1 (stereo not shown) | – | anti-HRPII ELISA | W2 chloroquine-resistant | 72 h | – | 8900 ± 400
COc1ccc2cc1Oc1cc3c(cc1OC)CCN(C)C3Cc1ccc(cc1)Oc1c(O)c(OC)cc3c1C(C2)N(C)CC3 (stereo not shown) | parasite growth | SYBR Green I | 3D7, INDO and Cam3.1 R539T | – | – | ≤ 1500
COc1cc(O)c(-c2cc(-c3cc(-c4c(O)cc5c(c4OC)[C@H](C)N[C@H](C)C5)c4cc(C)cc(OC)c4c3O)c(O)c3c(OC)cc(C)cc23)c2c1[C@H](C)N[C@H](C)C2 | parasite growth | SYBR Green | W2 | 96 h | drug-resistant strain, blood stage | 134
CC[C@H](C)[C@@H]1NC(=O)[C@H](CCCCN)NC(=O)[C@H](CCCCN)NC(=O)[C@H](Cc2ccc(O)cc2)NC(=O)[C@H](CC(C)C)NC(=O)[C@@H]2CCCN2C(=O)[C@H](C)NC(=O)CNC(=O)CNC(=O)[C@H](CO)NC(=O)CNC(=O)CNC(=O)[C@H](CO)NC(=O)[C@H](CCC(=O)O)NC(=O)[C@H](CC(C)C)NC(=O)[C@H](CC(C)C)NC(=O)[C@H](CCCCN)NC(=O)[C@H](CCCCN)NC(=O)[C@H]([C@@H](C)CC)NC(=O)[C@H]([C@@H](C)CC)NC(=O)[C@H](CCCCN)NC(=O)[C@H](CCCCN)NC(=O)[C@H](Cc2ccc(O)cc2)NC(=O)[C@H](CC(C)C)NC(=O)[C@@H]2CCCN2C(=O)[C@H](C)NC(=O)CNC(=O)[C@@H]2CSSC[C@H](NC(=O)[C@H](CC(C)C)NC(=O)[C@H](CCCCN)NC(=O)[C@H](CCCCN)NC(=O)[C@H]([C@@H](C)CC)NC1=O)C(=O)N[C@@H](CCCCN)C(=O)N[C@@H](CC(N)=O)C(=O)NCC(=O)N2 | parasite growth | – | 3D7 | 72 h | 5% serum plus Albumax II | 14400 ± 1300
C[C@H]1C(=O)O[C@@H]2O[C@@]3(C)CC[C@@H]4[C@@]2(OO3)[C@H]1CC[C@]4(C)O | parasite growth | SYBR Green I | Dd2, chloroquine-resistant | – | – | 133
OCCc1cc(CN(Cc2ccccn2)Cc2ccccn2)c(O)c(CN(Cc2ccccn2)Cc2ccccn2)c1 | growth | [3H]hypoxanthine incorporation | HB3 chloroquine-sensitive | 48 h | – | 290 ± 28
CCC1=C(C)C(c2ccc[nH]2)=NC1=CNC1CCCCCCC1 | parasite growth | – | 7G8, chloroquine-resistant | – | – | 128
COc1cc2c3c4c1Oc1cc5c(cc1O4)[C@H](Cc1ccc(OCCCN(C)C)c(c1)Oc1ccc(cc1)C[C@@H]3N(C)CC2)N(C)CC5 | parasite growth | SYBR Green I | drug-sensitive Cambodian isolates | – | median | 147
COc1cc2c3cc1Oc1cc(ccc1O)CC1c4c(cc(OC)c(O)c4Oc4ccc(cc4)CC3N(C)CC2)CCN1C (stereo not shown) | parasite growth | SYBR green I | 3D7 | – | – | 1510 ± 41.8
Clc1ccc(C2=CC(c3ccc[nH]3)=NC2=CNC2CCCCCC2)cc1 | parasite growth | – | 7G8, chloroquine-resistant | – | – | 348
Cc1ccc(C(C)C)cc1.Clc1ccc2c(NCCNCc3ccccn3)ccnc2c1.[Cl-].[Cl][Ru+] | parasite growth | parasite lactate dehydrogenase | D10 chloroquine-sensitive | – | – | 7690 ± 70
O=C(O)[C@@H]1Cc2c([nH]c3ccccc23)[C@@H](c2ccc(F)cc2Cl)N1 | parasite growth | – | Dd2 | 72 h | – | 433 ± 55
C[OH+][Cu-2]12[O]C(c3cn(-c4ccccc4)nc3-c3ccc(C)cc3)=N[N+]1=C(C)c1c(cc(C)oc1=O)[O]2 (stereo not shown) | – | SYBR Green I | 3D7 | 72 h | – | 4800
CCCCCCCCc1cc(CN(Cc2ccccn2)Cc2ccccn2)c(O)c(CN(Cc2ccccn2)Cc2ccccn2)c1 | growth | [3H]hypoxanthine incorporation | W2 chloroquine-resistant | 48 h | – | 527 ± 88
COc1cc(O)c(-c2cc(-c3c(C)cc(O)c4c(OC)ccc(-c5c(O)cc(OC)c6c5C[C@@H](C)N(C)[C@@H]6C)c34)c(O)c3c(OC)cc(C)cc23)c2c1[C@@H](C)N(C)[C@H](C)C2 | parasite growth | – | K1 | – | drug-resistant strain, blood stage | 6

Compound | observed | method | strain | time | notes | IC50 [nM]
Clc1ccc(C2=CC(c3ccc[nH]3)=NC2=CNC2CCCCC2)cc1 | parasite growth | – | 7G8, chloroquine-resistant | – | – | 415
CC[C@H](C)[C@@H]1NC(=O)[C@H](CCCCN)NC(=O)[C@H](CCCCN)NC(=O)[C@H](Cc2ccc(O)cc2)NC(=O)[C@H](CC(C)C)NC(=O)[C@@H]2CCCN2C(=O)[C@H](C)NC(=O)CNC(=O)CNC(=O)[C@H](CO)NC(=O)CNC(=O)CNC(=O)[C@H](CO)NC(=O)[C@H](CCC(=O)O)NC(=O)[C@H](CC(C)C)NC(=O)[C@H](CC(C)C)NC(=O)[C@H](CCCCN)NC(=O)[C@H](CCCCN)NC(=O)[C@H]([C@@H](C)CC)NC(=O)[C@H]([C@@H](C)CC)NC(=O)[C@H](CCCCN)NC(=O)[C@H](CCCCN)NC(=O)[C@H](Cc2ccc(O)cc2)NC(=O)[C@H](CC(C)C)NC(=O)[C@@H]2CCCN2C(=O)CNC(=O)CNC(=O)[C@@H](NC(=O)CN)CSSC[C@@H](C(N)=O)NC(=O)[C@H](CC(C)C)NC(=O)[C@H](CCCCN)NC(=O)[C@H](CCCCN)NC(=O)[C@H]([C@@H](C)CC)NC1=O | parasite growth | – | 3D7 | 72 h | 5% serum plus Albumax II | 12300 ± 1000
COC1=CC(c2ccc[nH]2)=NC1=CNC12CC3CC(CC(C3)C1)C2 | parasite growth | – | 7G8, chloroquine-resistant | – | – | 3.8
CC[C@H](C)[C@@H]1NC(=O)[C@H](CCCCN)NC(=O)[C@H](CCCCN)NC(=O)[C@H](Cc2ccc(O)cc2)NC(=O)[C@H](CC(C)C)NC(=O)[C@@H]2CCCN2C(=O)[C@H](C)NC(=O)CNC(=O)CNC(=O)[C@H](CO)NC(=O)CNC(=O)CNC(=O)[C@H](CO)NC(=O)[C@H](CCC(=O)O)NC(=O)[C@H](CC(C)C)NC(=O)[C@H](CC(C)C)NC(=O)[C@H](CCCCN)NC(=O)[C@H](CCCNC(=N)N)NC(=O)[C@H]([C@@H](C)CC)NC(=O)[C@H]([C@@H](C)CC)NC(=O)[C@H](CCCCN)NC(=O)[C@H](CCCCN)NC(=O)[C@H](Cc2ccc(O)cc2)NC(=O)[C@H](CC(C)C)NC(=O)[C@@H]2CCCN2C(=O)CNC(=O)CNC(=O)[C@@H](NC(=O)CN)CSSC[C@@H](C(N)=O)NC(=O)[C@H](CC(C)C)NC(=O)[C@H](CCCCN)NC(=O)[C@H](CCCNC(=N)N)NC(=O)[C@H]([C@@H](C)CC)NC1=O | parasite growth | – | 3D7 | 72 h | 5% serum plus Albumax II | 11200 ± 600
CCCC1(CC)OOC2(CCN(C(=O)c3ccccc3)CC2)OO1 | parasite growth | imaging | 3D7 | 48 h | blood stage | 17.8
CC[C@H](C)[C@@H]1NC(=O)[C@H](CCCCN)NC(=O)[C@H](CCCCN)NC(=O)[C@H](Cc2ccc(O)cc2)NC(=O)[C@H](CC(C)C)NC(=O)[C@@H]2CCCN2C(=O)[C@H](C)NC(=O)CNC(=O)CNC(=O)[C@H](CO)NC(=O)CNC(=O)CNC(=O)[C@H](CO)NC(=O)[C@H](CCC(=O)O)NC(=O)[C@H](CC(C)C)NC(=O)[C@H](CC(C)C)NC(=O)[C@H](CCCCN)NC(=O)[C@H](CCCCN)NC(=O)[C@H]([C@@H](C)CC)NC(=O)[C@H]([C@@H](C)CC)NC(=O)[C@H](CCCCN)NC(=O)[C@H](CCCCN)NC(=O)[C@H](Cc2ccc(O)cc2)NC(=O)[C@H](CC(C)C)NC(=O)[C@@H]2CCCN2C(=O)CNC(=O)CNC(=O)CSC[C@@H](C(N)=O)NC(=O)[C@H](CC(C)C)NC(=O)[C@H](CCCCN)NC(=O)[C@H](CCCCN)NC(=O)[C@H]([C@@H](C)CC)NC1=O | parasite growth | – | 3D7 | 72 h | Albumax II medium, no serum | ~8000
CC1=CC(=CNC2CCCCCC2)N=C1c1ccc[nH]1 | parasite growth | – | 7G8, chloroquine-resistant | – | – | 2150
O=C1C(O)=C(CNC2CCCC2)C(=O)c2ccccc21 | parasite growth | – | W2 | – | drug-resistant strain, blood stage | 16800
O=C1CC2(CCN(c3cc(N4CCN(S(=O)(=O)c5ccc(Cl)s5)CC4)ncn3)CC2)Oc2ccccc21 | parasite growth | – | W2 | – | – | 4760 ± 250
C=CC1CN2CCC1CC2C(OC(=O)NCCCCCCNC(=O)OC(c1ccnc2ccc(OC)cc12)C1CC2CCN1CC2C=C)c1ccnc2ccc(OC)cc12 (stereo not shown) | parasite growth | – | Dd2, chloroquine-resistant | – | – | 49.2 ± 6.2
CC(C)C1=CC(=CNC2CCCCCC2)N=C1c1ccc[nH]1 | parasite growth | – | 7G8, chloroquine-resistant | – | – | 1980
CC[C@H](C)[C@@H]1NC(=O)[C@H](CCCCN)NC(=O)[C@H](CCCCN)NC(=O)[C@H](Cc2c[nH]c3ccccc23)NC(=O)[C@H](CC(C)C)NC(=O)[C@@H]2CCCN2C(=O)[C@H](C)NC(=O)CNC(=O)CNC(=O)[C@H](CO)NC(=O)CNC(=O)CNC(=O)[C@H](CO)NC(=O)[C@H](CCC(=O)O)NC(=O)[C@H](CC(C)C)NC(=O)[C@H](CC(C)C)NC(=O)[C@H](CCCCN)NC(=O)[C@H](CCCCN)NC(=O)[C@H]([C@@H](C)CC)NC(=O)[C@H]([C@@H](C)CC)NC(=O)[C@H](CCCCN)NC(=O)[C@H](CCCCN)NC(=O)[C@H](Cc2c[nH]c3ccccc23)NC(=O)[C@H](CC(C)C)NC(=O)[C@@H]2CCCN2C(=O)CNC(=O)CNC(=O)[C@@H](NC(=O)CN)CSSC[C@@H](C(N)=O)NC(=O)[C@H](CC(C)C)NC(=O)[C@H](CCCCN)NC(=O)[C@H](CCCCN)NC(=O)[C@H]([C@@H](C)CC)NC1=O | parasite growth | – | 3D7 | 72 h | 5% serum plus Albumax II | 3000 ± 200
N#Cc1c(-c2ccco2)[n+]([O-])c2ccc(F)cc2[n+]1[O-] | parasite growth | [3H]hypoxanthine incorporation | K1 chloroquine-resistant | – | – | 590 ± 60
CC[C@H](C)[C@@H]1NC(=O)[C@H](CCCCN)NC(=O)[C@H](CCCCN)NC(=O)[C@H](Cc2ccc(O)cc2)NC(=O)[C@H](CC(C)C)NC(=O)[C@@H]2CCCN2C(=O)[C@H](C)NC(=O)CNC(=O)CNC(=O)[C@H](CO)NC(=O)CNC(=O)CNC(=O)[C@H](CO)NC(=O)[C@H](CCC(=O)O)NC(=O)[C@H](CC(C)C)NC(=O)[C@H](CC(C)C)NC(=O)[C@H](CCCCN)NC(=O)[C@H](CCCCN)NC(=O)[C@H]([C@@H](C)CC)NC(=O)[C@H]([C@@H](C)CC)NC(=O)[C@H](CCCCN)NC(=O)[C@H](CCCCN)NC(=O)[C@H](Cc2ccc(O)cc2)NC(=O)[C@H](CC(C)C)NC(=O)[C@@H]2CCCN2C(=O)[C@H](C)NC(=O)CNC(=O)[C@@H]2CSSC[C@H](NC(=O)[C@H](CC(C)C)NC(=O)[C@H](CCCCN)NC(=O)[C@H](CCCCN)NC(=O)[C@H]([C@@H](C)CC)NC1=O)C(=O)N[C@@H](CCC(=O)O)C(=O)N[C@@H](CO)C(=O)NCC(=O)N2 | parasite growth | – | 3D7 | 72 h | 5% serum plus Albumax II | 37600 ± 3400
Clc1ccc(C2=CC(c3ccc[nH]3)=NC2=CNC2CCCCCCC2)cc1 | parasite growth | – | 7G8, chloroquine-resistant | – | – | 316
